Earlier results as cited in several papers.
Numbered parts are unrelated; values within a part may stem from several laboratories.

Series 1 — organism: Cryptosporidium parvum; method: high-throughput screen; tested at: concentration not given
For `CCOC(=O)[C@H](CCc1ccccc1)N[C@@H](C)C(=O)N1Cc2ccccc2C[C@H]1C(=O)O`, activity read “inactive”.
`CCN(CC)CCOc1ccc(C(=C(Cl)c2ccccc2)c2ccccc2)cc1`: activity “inactive”.
Under activity, `CN[C@@H]1[C@H](O)[C@H](NC)[C@H]2O[C@@]3(O)C(=O)C[C@@H](C)O[C@H]3O[C@@H]2[C@H]1O.Cl.Cl` is recorded as “inactive”.
For `Cc1cn([C@H]2C[C@H](N=[N+]=[N-])[C@@H](CO)O2)c(=O)[nH]c1=O`, activity read “inactive”.
For `CCCCC(=O)O[C@]1(C(=O)CO)CC[C@H]2[C@@H]3CCC4=CC(=O)CC[C@]4(C)[C@H]3[C@@H](O)C[C@@]21C`, activity read “inactive”.

Mixed results
With `Cc1ccccc1Oc1cc(-n2c(=O)cc(C(F)(F)F)[nH]c2=O)c2ccccc2c1` the IC50 was 10.8 µM (BCAT2; biochemical activity).
`C[C@@H](O)[C@H]1C(=O)N2C(C(=O)O)=C(S[C@@H]3CN[C@H](C(=O)N(C)C)C3)[C@H](C)[C@H]12` has an MIC90 of no more than 0.12 µg/mL (Staphylococcus aureus; MSSA).
`CC(=O)Nc1ncc(CN2CCC[C@H](Cc3cc(C)nc(C)c3)C2)s1` has an IC50 of greater than 10 µM (HEXA).
Under cell migration, `C/C(=N\c1ccc(O)cc1)c1cc2ccccc2n1C` is recorded as “decreased” (PC-3; concentration not given, with: EGF).
With `CC(=O)Nc1c(C(C)=O)c(=O)n(C)c2nc(-c3ccc(Cl)cc3Cl)c(-c3ccc(Cl)cc3)cc12` the IC50 was 3.68 µM (MAPK14; off-target panel).
With `Cc1c(NC(=O)c2cc(C(N)=O)nc3cc(F)ccc23)c(C(F)(F)F)nn1Cc1ccc(C#N)cc1` the IC50 was 1.14 µM (ADORA3; binding, radioligand binding Eurofins-Panlabs).

Some of these lines once more (series 1):
Under activity, `CN[C@@H]1[C@H](O)[C@H](NC)[C@H]2O[C@@]3(O)C(=O)C[C@@H](C)O[C@H]3O[C@@H]2[C@H]1O.Cl.Cl` is recorded as “inactive”.
